Published values of several laboratories.
Numbered parts are unrelated; each lists some results of a single study. Changes are numbered by the printed parent chain.

Sample 1 — target: tungstate, free oxyanion; method: microfluidic competitive inhibition; matrix: in vitro, cell-free expressed; tested at: not given; direction: lower = stronger binding
Notes: derived from inhibition constants, unchanged parent 2230 nM
Starting sequence: PafA, mature enzyme, eGFP fusion (Elizabethkingia meningoseptica, UniProt Q9KJX5); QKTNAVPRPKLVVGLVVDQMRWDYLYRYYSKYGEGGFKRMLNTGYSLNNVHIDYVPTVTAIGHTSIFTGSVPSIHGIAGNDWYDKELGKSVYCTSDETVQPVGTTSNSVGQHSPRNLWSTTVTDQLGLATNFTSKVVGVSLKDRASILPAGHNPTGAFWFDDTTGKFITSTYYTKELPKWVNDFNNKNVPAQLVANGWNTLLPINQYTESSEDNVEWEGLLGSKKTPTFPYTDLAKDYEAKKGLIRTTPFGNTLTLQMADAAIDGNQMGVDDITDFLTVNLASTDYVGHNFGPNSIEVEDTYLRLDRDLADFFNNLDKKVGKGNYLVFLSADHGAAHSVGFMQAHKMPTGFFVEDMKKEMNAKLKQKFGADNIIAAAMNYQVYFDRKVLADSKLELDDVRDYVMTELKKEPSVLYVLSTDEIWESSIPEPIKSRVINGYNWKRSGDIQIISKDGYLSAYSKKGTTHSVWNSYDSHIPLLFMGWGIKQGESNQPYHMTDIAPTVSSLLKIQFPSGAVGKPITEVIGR
Substitution	oxyanion analog dissociation constant
T278G	2.22 µM
P72V	1.25 µM
S70G	1.83 µM
A60G	2.93 µM
Q192G	1.99 µM
T208G	2.08 µM
A515G	2.12 µM
A376V	1.9 µM

Sample 2 — read-out: binding; method: phage display NGS; molecule type: peptide; tested at: concentration not given; reference: input library
Target: UDP-N-acetylglucosamine--peptide N-acetylglucosaminyltransferase 110 kDa subunit (OGT, Homo sapiens, UniProt O15294)
Sequence of UniProt O15294 (whole entry, looked up): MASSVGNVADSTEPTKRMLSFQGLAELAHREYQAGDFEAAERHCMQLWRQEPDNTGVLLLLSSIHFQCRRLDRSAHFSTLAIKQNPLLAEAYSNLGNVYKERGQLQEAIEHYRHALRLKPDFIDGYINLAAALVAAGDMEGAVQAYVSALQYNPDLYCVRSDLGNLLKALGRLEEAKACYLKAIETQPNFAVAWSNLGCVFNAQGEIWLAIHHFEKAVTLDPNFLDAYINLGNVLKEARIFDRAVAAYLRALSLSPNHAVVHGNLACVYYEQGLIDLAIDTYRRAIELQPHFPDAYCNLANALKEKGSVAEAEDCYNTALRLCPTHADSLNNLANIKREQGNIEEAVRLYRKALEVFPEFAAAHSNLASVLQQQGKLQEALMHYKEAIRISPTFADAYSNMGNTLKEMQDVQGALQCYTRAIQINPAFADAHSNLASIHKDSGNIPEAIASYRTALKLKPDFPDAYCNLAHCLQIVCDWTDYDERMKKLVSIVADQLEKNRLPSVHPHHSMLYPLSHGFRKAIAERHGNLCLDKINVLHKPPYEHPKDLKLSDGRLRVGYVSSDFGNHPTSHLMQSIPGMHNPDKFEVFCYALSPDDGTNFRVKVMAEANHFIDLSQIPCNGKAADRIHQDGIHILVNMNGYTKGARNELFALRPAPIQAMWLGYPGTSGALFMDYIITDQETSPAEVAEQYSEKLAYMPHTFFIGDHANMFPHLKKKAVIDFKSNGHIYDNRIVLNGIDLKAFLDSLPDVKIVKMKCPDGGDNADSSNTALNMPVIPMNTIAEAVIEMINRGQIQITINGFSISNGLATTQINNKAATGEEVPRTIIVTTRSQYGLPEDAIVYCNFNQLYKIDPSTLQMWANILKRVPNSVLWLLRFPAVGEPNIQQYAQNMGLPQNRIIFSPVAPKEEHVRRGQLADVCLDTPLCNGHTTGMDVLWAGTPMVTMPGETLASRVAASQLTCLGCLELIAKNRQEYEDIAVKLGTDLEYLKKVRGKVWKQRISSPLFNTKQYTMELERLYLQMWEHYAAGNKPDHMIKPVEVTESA
Sequence	enrichment fold change
HIAHQYPHQAKPSGH	4.27
DHSHFHERMYVRHDI	2.22
SYVHSHAMHPYHSQH	3.35
HFTREPPTHHHKLQE	8.76
HLMHHRLEPDHAHQV	14.2
MLETTPHHHQRPYAI	2.75
YATPWTPQYQIMYN	22.2
HEFHRHHPPIDDLMR	3.57

Sample 3 — target: CCNA2, cyclin fold, Cln2 fusion (human); method: yeast growth competition, sequencing; matrix: yeast; notes: strong parent motif; reference: not given; direction: higher = stronger binding; starting sequence: viral docking peptide; YKVKRRLVFGADD
Substitution	normalised enrichment score
D12W	6.1
R6I	4.34
V3L	4.62
D12Q	6.41
R5S	1.48
F9A	-0.125
V8Q	6.51
K2P	5.81

Mixed results
Structure (SMILES)	cell line	tested at	time	quantity	value
C[C@]12CC[C@H](O)CC1=CC[C@@H]1[C@@H]2CC[C@]2(C)C(=O)CC[C@@H]12	HaCaT	100 µM	36 h	viability	81.6%

Some of these lines once more (sample 3):
Substitution	normalised enrichment score
R5S	1.48
F9A	-0.125
